Measured values collected from several papers.
Parts stem from different laboratories: compare values within a part only.

Set 1
Target: Fragile X messenger ribonucleoprotein 1, C-terminal low-complexity region (Fmr1, Mus musculus, UniProt P35922)
Technique: RNA Bind-n-Seq
Molecule type: RNA
Sample: in vitro
Tested at: 200 nM
Setting: whole 134-nt RNA, ends assumed
Together with: 150 mM KCl
Relative to: input library
Direction: higher = stronger binding
Quantity: log2 enrichment
Shared flanks, not repeated: GGGAGUUCUACAGUCCGACGAUC … UGGAAUUCUCGGGUGUCAAGG
Sequence = UCAAGUCCUGUGCUACACAUCGUAUGUACCGAAUCGGUUUGGAAAGGUUUUUGGAAAGUAUUAUGUUACGCCGUUCGGAUCUGCACUUCC; value = -0.442
Sequence = UCCUGUGCUACACAUCGUAUGUACCGAAUCGGGUUUUUGGGUUUUUUUGGGAAAAAGGGAAAGUAUUAUGUUACGCCGUUCGGAUCUGCA; value = -0.1
Sequence = CAAGUCCUGUGCUACACAUCGUAUGUACCGAAUCGGGUUUGGGUGGGUUUUUGGGAAAGUAUUAUGUUACGCCGUUCGGAUCUGCACUUC; value = 1.03
Sequence = CAAGUCCUGUGCUACACAUCGUAUGUACCGAAUCAAACCCAAACCCAAAUUUAAAAAAGUAUUAUGUUACGCCGUUCGGAUCUGCACUUC; value = -0.168
Sequence = AGUCCUGUGCUACACAUCGUAUGUACCGAAUCGGGAAAAAGGAAAAAGGGAAAAAGGGAAAGUAUUAUGUUACGCCGUUCGGAUCUGCAC; value = -0.55
Sequence = GUCCUGUGCUACACAUCGUAUGUACCGAAUCGGGGCCCCCGGCCCCCGGCCCCCGGGGAAAGUAUUAUGUUACGCCGUUCGGAUCUGCAC; value = -0.462
Sequence = UAACUUUAGAGGAGGAUCUGAUGGAUAUGGCAGUGGACGUGGAUUUAGGGAUGGCUAUAAUGGGUAUGGAGGAGGACCUGGAGGUGGCAA; value = 0.335
Sequence = UGGCCCUGGUGGCAUGUGGGGAGGAAGAGGUGGCCUCAUGGAUCGUGGUGGUCCCGGUGGAAUGUUCAGAGGUGGCCGUGGUGGAGACAG; value = 0.127
Sequence = UCCAAACCCAAGAAAAAGAAAUCUUUUUCCAAGGAGGAGUUGAUGAGUAGCGAUCUUGAAGAGACCGCUGGCAGCACCAGUAUUCCCAAG; value = -0.775
Sequence = AUUUCUCAGUUGAAGGAUGCUUACACUCUUGUCCAUCUAGACCUCAAUUACUGUUUUUCAGGAAUGUCUGAUCACAGAUACGGGGAUGGU; value = -0.89

Set 2
Target: Histone acetyltransferase KAT6A, both winged helices, GST fusion (KAT6A, Homo sapiens, UniProt Q92794, residues 1-181)
Technique: protein binding microarray
Molecule type: double-stranded DNA, one strand shown
Sample: in vitro
Tested at: not given
Setting: 8-mer, flanks averaged, mean of 2 arrays, mostly near background
Relative to: not given
Direction: higher = stronger binding
Quantity: E-score
Residues (chain): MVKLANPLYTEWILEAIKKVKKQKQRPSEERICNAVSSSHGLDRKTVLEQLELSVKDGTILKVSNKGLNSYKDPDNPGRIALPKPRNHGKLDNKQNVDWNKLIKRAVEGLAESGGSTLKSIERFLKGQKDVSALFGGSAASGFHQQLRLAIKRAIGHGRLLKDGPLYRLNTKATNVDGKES
Sequence = AGATGGTA; value = -0.128
Sequence = CGATGCAC; value = -0.0682
Sequence = CGTAACCA; value = 0.0327
Sequence = CCCATAAA; value = -0.116
Sequence = AAGTTGTC; value = -0.0219
Sequence = AAGATACC; value = 0.0383
Sequence = CCCGGTAA; value = 0.198
Sequence = CATTTATA; value = -0.108
Sequence = ATCCATAA; value = -0.118
Sequence = CCTATCAA; value = -0.103
Sequence = CGTAAACG; value = 0.219
Sequence = CGGCCTTA; value = 0.218
Sequence = AGATTTCA; value = -0.0109
Sequence = GATGAAAA; value = 0.059
Sequence = CTATTCAC; value = 0.0637
Sequence = ACGCGCCC; value = 0.323
Sequence = ATGGCACA; value = -0.0852
Sequence = CTTTTCAC; value = -0.0834
Sequence = CGGTTCGC; value = 0.219

Set 3
Target: RNA binding protein fox-1 homolog 2, RRM domain, GST-SBP tag (RBFOX2, Homo sapiens, UniProt O43251-10, residues 100-194)
Technique: RNA Bind-n-Seq
Molecule type: RNA
Sample: in vitro
Tested at: 365 nM
Setting: natural RNA segment, single round, ends assumed
Relative to: no-protein control
Direction: higher = stronger binding
Quantity: RBNS enrichment (R)
Shared flanks, not repeated: GGGAGUUCUACAGUCCGACGAUC … UGGAAUUCUCGGGUGCCAA
Construct (chain): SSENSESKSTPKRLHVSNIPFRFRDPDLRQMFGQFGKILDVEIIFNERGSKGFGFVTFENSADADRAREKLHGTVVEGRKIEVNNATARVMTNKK
Sequence = CGCCAGUAACUCGCCCUUCUUGGCAGGUGUCGCCUGAUUCUGAUAAUGCUGUGUUUGUUGUAAAGGUUUCCAGGACUGAGACCUUAUUCCCUGGGCUUCGUGAAAUGGCA; value = 3.46
Sequence = GUACACUUGGCUUCCCCCUGCAACUGCAGGGCCGCUUCUGGGGCCUGGACCACCAUGGGGAGGAAGAGUCCCACUCAUUACAAAUAAAGAAAGGUGGUGUGAGCCUGGGA; value = 0.496
Sequence = CCCCUCGUGGCAGCUGUCCUUUCCACGUGCACUGGGACCAGAAGUCAGACAAGGAAUUUAGGAAGCAAAAGUUGACCAAGGGUGCAUUGGGUUCGCCUCCCCGAGGCUCC; value = 0.576
Sequence = GGGGAUUGACAGGUUUCAUCAUCGGAUAGACAUUUGGUUAUCCAGAGAGAAUUGGUAAUUUGCCAGCGUAAGGGACCCAAAGCCACCAGUGAGUACAUGCCCCAGAGAUG; value = 0.544
Sequence = GGUGACACAAACCAGUUUAUUGGAGAACAGCCUGGACAAAGGCCCAUAGGUAGGUAAAAUAGUAUGGGAGGGAGGCAAUGAAGAAAUCAGUUCCCAUGGAGUUGUGACAG; value = 0.675
Sequence = ACACGCAUAUCAAUUAAUUUAAAAAGCGAAUAAAUGUAAAUUAUAAAAAGAGUCCUACCCCCCUCUUAAGCUGCAUAUCCCGUUCAGUUUAUUGCCCCCAUGGAGUUGAG; value = 0.968
Sequence = AAAAUCACUGUCAGAGCUAGCCUUGCCUAGUGAGUCUGUGUCCACAGGCUGUAACAGGGUGGAAGAGCAACAGUAGGCAGCCCAGGGAGCAGCAUGUGCUCACGGCAUCA; value = 5.2
Sequence = GUUUUAAGGUGGAAAAUUUUCUUACAGUUGAUGCAAAGUAUCAACUACUUUACCCUACCUUCUCCCCUUUUAGAUGGGUUCUUCCUGAGUUUUGGAGUCUUGUAUGAUUA; value = 0.437
Sequence = GCAGGGUCACACGCACCGUGUCCCCACCCAGGACAGCAGACACCCGCCAGAGUGUGCGCGCCCAGUGACUGCACCCCGGCCCUCAUCACCCACCGGCACUGAUCGGGGCA; value = 1.49
Sequence = AAAGCUAUUCUAAAUGGGUUUUUAUUUGUAAGACAUUAUUUACUAGGAAGCUGGUGAUAUUAAUGCUUACUGUUCUAAUCCAGUGGCCAAGGUAUUAAGAAUUUGCAAGU; value = 0.612
Sequence = AGUCAUGAAGAUUGAGUUAAUCUCUGAAAUAUCCACACAGUGUUGUCACUCAGGAAUGAUUUGGAAUGUUAGGGAUAGUCACCCACCACCACAGUGCUAGGUUUCAGUGA; value = 0.861
Sequence = UCUGAUGUCACCAAUUCAGGAAAACGAGUCCUCUCCUAGGACUAUCCCCGGUUCUGGAAAUCAUGUUCUCCUCACUCAUGGUGACAAGCUAAGAAAGCUGAACAAAGGGA; value = 0.313

Set 4
Target: RING finger protein unkempt homolog, zinc fingers 1-6, SBP tag (UNK, Homo sapiens, UniProt Q9C0B0, residues 30-357)
Chain of UniProt Q9C0B0 (30-357, looked up): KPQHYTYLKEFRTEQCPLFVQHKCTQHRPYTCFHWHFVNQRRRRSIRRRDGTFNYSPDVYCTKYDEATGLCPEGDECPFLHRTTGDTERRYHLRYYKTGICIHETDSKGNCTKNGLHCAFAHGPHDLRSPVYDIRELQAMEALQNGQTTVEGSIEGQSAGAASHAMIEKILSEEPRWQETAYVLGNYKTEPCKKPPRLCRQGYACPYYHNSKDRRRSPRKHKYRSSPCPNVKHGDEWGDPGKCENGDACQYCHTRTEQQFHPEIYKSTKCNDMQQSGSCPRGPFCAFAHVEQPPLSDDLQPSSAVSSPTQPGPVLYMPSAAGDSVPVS
Technique: RNA Bind-n-Seq
Molecule type: RNA
Sample: in vitro
Tested at: 100 nM
Setting: RNA with constant flanks, ends assumed
Relative to: input RNA pool
Direction: higher = stronger binding
Quantity: bound/input enrichment
Sequence = GGGAGUUCUACAGUCCGACGAUCUUACAGUCAUUGAUGGACUCUAUUUUUUUAUUAUUACUUGGACCUUGGUCGUUUUUAUACCCGCAAAAUGUCUUGUUUUAAUUUGUGUUUUUUGGGGGGAGGGAGGGAGUGAACUUGCUGCAACAGAGGAUUGAGCAUCA; value = 1.3 ratio
Sequence = GGGAGUUCUACAGUCCGACGAUCAUUGAACAAAAAUGUUUCCACUGGCUUUUGCCUGUAAGAAAAAAAAUGUACCCGAGCACACCGAGCUUUUUAACCGCACUAACCAAUGCCUUUUCCGAUGUAUUUUUGAUGUAUAUAUCUCAACAGAGGAUUGAGCAUCA; value = 0.416 ratio
Sequence = GGGAGUUCUACAGUCCGACGAUCAUCCCUCAGUGACAGUAUGCCUUCUGCCGCAGAUUCUCACUCCCGUCAUUUUUCUGAAUUCCGUUGUUCUGACCCCGAAAGCAUGAAAACUUCUUGCCGUCAUGGUUCCAGUGAUUAUCACAACAGAGGAUUGAGCAUCA; value = 0.288 ratio

Set 5
Target: PABPC1L2, full length, GST fusion (mouse, UniProt A0ABA7IW68)
Technique: RNAcompete
Molecule type: RNA
Sample: in vitro
Tested at: 20 nM
Setting: 7-mer, probes averaged, single round
Relative to: mean of 7-mers
Direction: higher = stronger binding
Quantity: 7-mer Z-score
Target sequence (chain): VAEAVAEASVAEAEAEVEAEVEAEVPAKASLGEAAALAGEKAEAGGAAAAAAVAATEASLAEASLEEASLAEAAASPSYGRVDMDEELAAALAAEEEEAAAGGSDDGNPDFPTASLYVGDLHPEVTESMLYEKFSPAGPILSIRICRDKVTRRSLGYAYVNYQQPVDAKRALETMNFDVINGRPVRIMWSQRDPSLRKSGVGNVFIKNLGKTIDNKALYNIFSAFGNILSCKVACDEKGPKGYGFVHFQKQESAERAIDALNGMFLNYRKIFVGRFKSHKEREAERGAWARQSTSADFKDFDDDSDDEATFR
Sequence = UCCCCCG; value = -0.519
Sequence = CCAAGGA; value = 0.095
Sequence = UAAUUGA; value = -0.0428
Sequence = CUGCGAA; value = -0.0754
Sequence = AAUUGAA; value = 0.227
Sequence = UGGCCAC; value = -0.244
Sequence = ACUACAU; value = -0.124
Sequence = CUCCGUG; value = -0.238
Sequence = GUGUCUC; value = -0.287
Sequence = AGUCUAC; value = -0.318
Sequence = UAAAAAC; value = 11.2
Sequence = AUUCGAA; value = -0.155
Sequence = CGCAUAG; value = -0.202
Sequence = GAGACUC; value = -0.235
Sequence = UGUGUGC; value = -0.282
Sequence = CCUUCGU; value = -0.465
Sequence = UCAUAAU; value = -0.318
Sequence = GUGUUAA; value = -0.17
Sequence = UCUGCCA; value = -0.3
Sequence = ACUGCGA; value = -0.0482
Sequence = GAUCCCC; value = -0.519
Sequence = CCUACUA; value = -0.17
